Assay results gathered from unrelated publications.
Each line is one published result; not all experiments were run side by side.

Compound	test	system	setting	endpoint	value
COc1ncnn2ccc(-c3cnc4nc(C)n(Cc5nnc([C@@H](C)F)o5)c4c3)c12		human	oral, dose not given, grade 4	patients with taste disorder	0%
Cn1ncc(-c2nc(N[C@H]3CC[C@H](N)CC3)ncc2Cl)c1CC1CC1	measured: treatment-related Nausea	human patients phase I	dose not given	patients with adverse events	51.6%
C=CC(=O)Nc1cc(Nc2nccc(Nc3cc(Cl)c(F)cc3C(C)(C)O)n2)c(OC)cc1N1CC[C@@H](N(C)C)C1		human patients	oral, 300 mg, treatment-emergent adverse events	patients with lipase increased	15.7%
O=C(c1ccc(F)c(F)c1Nc1ccc(I)cc1F)N1CC(O)([C@@H]2CCCCN2)C1		human patients	oral, dose not given, dose escalation, tablet	patients with SAE leading to withdrawal	0%
CCN(CCO)CCCC(C)Nc1ccnc2cc(Cl)ccc12 (stereo not shown)		human, newly diagnosed glioblastoma	oral, 400 mg/dose, WBC decrease grade 4, with RT and TMZ	patients with adverse event	33%
Cc1cn([C@H]2O[C@@H](CO[P@@](=O)(N[C@@H](C)C(=O)OC(C)C)Oc3ccccc3)[C@H](O)[C@H]2F)c(=O)[nH]c1=O	measured: blood CPK increased	human	10 mg	patients with TEAE	0%
C[C@@H]1OC(=O)NN=C1c1ccc(-c2ccc(F)cc2)c(C(F)(F)F)c1	phase I trial, measured: abdominal distension worst grade 1	human patients	10 mg loading then 0.5 mg daily	patients with adverse event	0%
CCS(=O)(=O)Nc1ccc(Oc2ccc(F)cc2F)c(-c2cn(C)c(=O)c3[nH]ccc23)c1	measured: Sepsis	human, relapsed/refractory AML	oral, dose not given, trial, together with: alone or with venetoclax	patients with fatal adverse event	5%
C[C@]1(O)C[C@@](N)(c2ccc(-c3nc4n(c3-c3ccccc3)COc3ccncc3-4)cc2)C1		human, advanced or metastatic solid tumours	28 mg intermittent, phase I dose escalation	patients with decreased appetite	66.7%
Cn1cncc1-c1c(F)cncc1NC(=O)c1c(N)nn2cc(F)cnc12		human patients	oral, dose not given, all doses	patients grade ≥3 Hyponatremia	6%

Repeated from above:
Compound	test	system	setting	endpoint	value
Cn1ncc(-c2nc(N[C@H]3CC[C@H](N)CC3)ncc2Cl)c1CC1CC1	measured: treatment-related Nausea	human patients phase I	dose not given	patients with adverse events	51.6%
